{"data": "Measurements of several laboratories", "organism": "Pseudomonas aeruginosa", "note": "Lines come from different studies, so protocols differ. ± marks the error that the study gave."}
{"Compound": "CC(C)=CCc1cc2c(cc1O)OC[C@H]1c3ccc(O)c(CC=C(C)C)c3O[C@@H]21", "system": "ATCC 10145", "MIC": "128 µg/mL"}
{"Compound": "COc1ccc2ccc3c(c2c1)C=[N+]1C2CCCCC2[N+]2=Cc4ccccc4[O][Au-]21[O]3.F[P-](F)(F)(F)(F)F (stereo not drawn)", "test": "bacterial growth, broth microdilution", "system": "carbapenem-resistant", "setting": "24 h", "MIC": "20 µM"}
{"Compound": "CC[C@@H](C)[C@@H](NC(=O)[C@@H](C)NC(=O)[C@@H](CCCCN)NC(=O)[C@@H](CC(C)C)NC(=O)[C@@H](CC(C)C)NC(=O)[C@H](NC(=O)[C@@H](CCCCN)NC(=O)[C@@H](CC(C)C)NC(=O)[C@@H](CCCCN)NC(=O)[C@@H](CCCCN)NC(=O)[C@@H](CCCCN)NC(=O)[C@@H](CCCCN)NC(=O)[C@@H](C)NC(=O)[C@@H](CCCCN)NC(=O)[C@@H](CO)NC(=O)[C@@H](Cc1ccccc1)NC(=O)[C@H](NC(=O)[C@@H](CCCCN)NC(=O)[C@@H](CC(C)C)NC(=O)[C@@H](Cc1ccccc1)NC(=O)[C@@H](CO)NC(=O)[C@@H](CCCCN)NC(=O)[C@@H](Cc1c[nH]c2ccccc12)NC(=O)[C@@H](CCCCN)NC(C)=O)[C@H](C)O)[C@H](C)O)C(=O)N[C@H](CO)C(=O)N[C@H](CCCCN)C(N)=O", "test": "broth microdilution", "system": "PA14", "setting": "24 h, 37 °C", "MIC": "2.5 µM"}
{"Compound": "COc1ccc2ccc3c(c2c1)C=[N+]1C2CCCCC2[N+]2=Cc4c(OC)cccc4[O][Au-]21[O]3.F[P-](F)(F)(F)(F)F (stereo not drawn)", "test": "bacterial growth, broth microdilution", "system": "carbapenem-resistant", "setting": "24 h", "MIC": "20 µM"}
{"Compound": "CCCCCCCCCCCCCCCC(=O)N(C)[C@H](CO)C(=O)N[C@H](C)C(=O)NCC(=O)N(C)[C@@H]1C(=O)N[C@@H](C)C(=O)N[C@H](C(=O)O)Cc2ccc(O)c(c2)-c2cc1ccc2O[C@@H]1O[C@@H](C)[C@H](O)[C@@H](O)[C@H]1O", "system": "PAO1", "setting": "cation-adjusted Mueller Hinton II", "MIC": "inactive"}
{"Compound": "COc1ccc2c(c1)[O][Au-]13[O]c4ccc5ccc(OC)cc5c4C=[N+]1C1CCCCC1[N+]3=C2.F[P-](F)(F)(F)(F)F (stereo not drawn)", "test": "bacterial growth, broth microdilution", "system": "carbapenem-resistant", "setting": "24 h", "MIC": "> 20 µM"}
{"Compound": "COc1ccc(-c2ccn(CC[C@](C)(C(=O)NO)S(C)(=O)=O)c(=O)c2)c(F)c1", "system": "PA-1950", "MIC": "0.25 µg/mL"}
{"Compound": "CC1(C)S[C@@H]2[C@H](NC(=O)[C@H](NC(=O)C3=C(O)C(c4ccccc4F)NC3=O)c3ccccc3)C(=O)N2[C@H]1C(=O)O (stereo partly drawn)", "test": "broth microdilution", "system": "PAO1", "setting": "added: clavulanic acid 6 µg/mL", "MIC": "6.25 µg/mL"}
{"Compound": "COc1ccc2c(oc3c4ccc(O)cc4oc(=O)c23)c1CC=C(C)C", "system": "ATCC 10145", "MIC": "128 µg/mL"}
{"Compound": "COc1ccc2ccc3c(c2c1)C=[N+]1C2CCCCC2[N+]2=Cc4ccc(-c5ccccc5)cc4[O][Au-]21[O]3.F[P-](F)(F)(F)(F)F (stereo not drawn)", "test": "bacterial growth, broth microdilution", "system": "carbapenem-resistant", "setting": "24 h", "MIC": "> 20 µM"}
{"Compound": "CC(C)c1ccc2c(c1)CCC1C(C)(CN(CC(O)C[N+](C)(C)C)CC(O)C[N+](C)(C)C)CCCC21C (stereo not drawn)", "test": "microbial growth, broth dilution", "system": "ATCC27853", "setting": "16 h", "MIC": "> 250 µg/mL"}
{"Compound": "COc1c(NC(=O)c2ccc(NC(=O)c3ccc(NC(=O)[C@H](CC#N)NC(=O)c4ccc(NC(=O)/C(C)=C/c5ccc(O)cc5)cc4)cc3)c(OC)c2O)ccc(C(=O)O)c1O", "system": "DSM 46316 ESBL 2", "MIC": "16 µg/mL"}
{"Compound": "CC(C)C[C@H](NC(=O)[C@H](CC(N)=O)NC(=O)[C@H](CCCNC(=N)N)NC(=O)[C@@H](CC(C)C)NC(=O)[C@H](Cc1ccc(-c2ccccc2)cc1)NC(=O)[C@H](CC(=O)O)NC(=O)[C@H](CCCCN)NC(=O)[C@@H](CC(C)C)NC(=O)[C@H](CCCNC(=N)N)NC(=O)[C@H](CCC(N)=O)NC(=O)[C@@H](NC(=O)[C@@H](CC(C)C)NC(=O)[C@H](CCCNC(=N)N)NC(=O)[C@H](CCCCN)NC(=O)[C@H](Cc1ccc(-c2ccccc2)cc1)NC(=O)CN)C(C)C)C(=O)N[C@H](C(N)=O)C(C)C", "test": "broth microdilution", "system": "PAO1", "MIC": "6.2 µM"}
{"Compound": "O=C(NCCNCCO)c1cn(Cc2ccc(F)cc2)c2cc(Cl)c(OCc3ccc(C(F)(F)F)cc3)cc2c1=O", "system": "ATCC 27853", "how to read": "≥80% growth inhibition", "MIC": "< 0.25 µg/mL"}
{"Compound": "CC(=O)N[C@H](CCCCN)C(=O)N[C@H](CC(C)C)C(=O)N[C@H](CCCCN)C(=O)N[C@H](CO)C(=O)N[C@H](CC(C)C)C(=O)N[C@H](CC(C)C)C(=O)N[C@H](CCCCN)C(=O)N[C@@H](C(=O)N[C@H](CC(C)C)C(=O)N[C@H](CO)C(=O)N[C@H](CCCCN)C(=O)N[C@H](C)C(=O)N[C@H](CCCCN)C(=O)N[C@H](CCCCN)C(=O)N[C@H](CCCCN)C(=O)N[C@H](CC(C)C)C(=O)N[C@H](CC(C)C)C(=O)N[C@H](CCCCN)C(=O)N[C@@H](C(=O)N[C@H](C)C(=O)N[C@H](CC(C)C)C(=O)N[C@H](CCCCN)C(=O)N[C@H](C)C(=O)N[C@H](CC(C)C)C(=O)N[C@H](CO)C(=O)N[C@H](CCCCN)C(N)=O)[C@H](C)O)[C@H](C)O", "test": "broth microdilution", "system": "PA14", "setting": "24 h, 37 °C", "MIC": "0.7 µM"}
{"Compound": "Cc1c(CN(C)C(=O)/C=C/c2cnc3c(c2)CC(N)C(=O)N3)oc2ccccc12 (stereo not drawn)", "system": "PAO1", "MIC": "> 64 µg/mL"}
{"Compound": "Oc1c(Cl)cc(Cl)c2cccnc12", "test": "microbial growth, agar dilution", "system": "ATCC27853", "MIC": "> 1200 µM"}
{"Compound": "CC[C@@H](C)[C@@H](NC(=O)[C@@H](C)NC(=O)[C@@H](CCCCN)NC(=O)[C@@H](CC(C)C)NC(=O)[C@@H](C)NC(=O)[C@H](NC(=O)[C@@H](CCCCN)NC(=O)[C@@H](CC(C)C)NC(=O)[C@H](NC(=O)[C@@H](CCCCN)NC(=O)[C@@H](CCCCN)NC(=O)[C@@H](CCCCN)NC(=O)[C@@H](C)NC(=O)[C@@H](CCCCN)NC(=O)[C@@H](CO)NC(=O)[C@@H](Cc1ccccc1)NC(=O)[C@H](NC(=O)[C@@H](CCCCN)NC(=O)[C@@H](CC(C)C)NC(=O)[C@@H](Cc1ccccc1)NC(=O)[C@@H](CO)NC(=O)[C@@H](CCCCN)NC(=O)[C@@H](Cc1c[nH]c2ccccc12)NC(=O)[C@@H](CCCCN)NC(C)=O)[C@H](C)O)C(C)C)[C@H](C)O)C(=O)N[C@H](CO)C(=O)N[C@H](CCCCN)C(N)=O", "test": "broth microdilution", "system": "PAO1", "setting": "24 h, 37 °C", "MIC": "1.3 µM"}
{"Compound": "C[C@H]1COc2c(N3CCN(C)CC3)c(F)cc3c(=O)c(C(=O)N[C@@H](CCCNC(=N)N)C(=O)N[C@@H](Cc4ccc(-c5ccccc5)cc4)C(=O)N[C@@H](CCCNC(=N)N)C(=O)N[C@@H](Cc4ccc(-c5ccccc5)cc4)C(=O)N[C@@H](CCCNC(=N)N)C(N)=O)cn1c23", "test": "broth microdilution", "system": "ATCC 3197", "MIC": "20 µM"}
{"Compound": "Cc1[nH]c(=O)c(CNC(=O)c2ccc(C(F)(F)F)nc2)c2c1CCCC2", "test": "agar double dilution", "system": "clinical isolate 17-1", "MIC": "> 128 µg/mL"}
{"Compound": "CC(C)CCCCC(=O)N[C@@H](CCN)C(=O)N[C@H](C(=O)N[C@H](CCN)C(=O)N[C@H]1CCNC(=O)[C@H]([C@@H](C)O)NC(=O)[C@H](CCN)NC(=O)[C@H](CCN)NC(=O)[C@H]([C@@H](C)O)NC(=O)[C@@H](CC(C)C)NC(=O)[C@H](CCN)NC1=O)[C@@H](C)O", "test": "broth microdilution", "system": "ATCC 27853, polymyxin susceptible, CAMHB", "setting": "18 h, 37 °C", "MIC": "0.5 µg/mL"}
{"Compound": "COc1ccc2ccc3c(c2c1)C=[N+]1C2CCCCC2[N+]2=Cc4cccc(C)c4[O][Au-]21[O]3.F[P-](F)(F)(F)(F)F (stereo not drawn)", "test": "bacterial growth, broth microdilution", "system": "carbapenem-resistant clinical isolate", "setting": "24 h", "MIC": "> 20 µM"}
{"Compound": "N=C(N)NCCC[C@H](NC(=O)[C@H](CCCNC(=N)N)NC(=O)[C@H](CCCNC(=N)N)NC(=O)[C@@H](N)CCCNC(=N)N)C(=O)N[C@@H](Cc1c[nH]c2ccccc12)C(=O)N[C@@H](Cc1c[nH]c2ccccc12)C(=O)N[C@@H](Cc1c[nH]c2ccccc12)C(=O)N[C@@H](Cc1c[nH]c2ccccc12)C(=O)O", "test": "broth microdilution", "system": "PAO1", "setting": "37 °C", "MIC": "21.7 µg/mL"}
{"Compound": "CC(=O)N[C@H](CCCCN)C(=O)N[C@H](CC(C)C)C(=O)N[C@H](CCCCN)C(=O)N[C@H](CO)C(=O)N[C@H](CC(C)C)C(=O)N[C@H](CC(C)C)C(=O)N[C@H](CCCCN)C(=O)N[C@@H](C(=O)N[C@H](CC(C)C)C(=O)N[C@H](CO)C(=O)N[C@H](CCCCN)C(=O)N[C@H](C)C(=O)N[C@H](CCCCN)C(=O)N[C@H](CCCCN)C(=O)N[C@H](CCCCN)C(=O)N[C@H](CCCCN)C(=O)N[C@H](CC(C)C)C(=O)N[C@H](CCCCN)C(=O)N[C@@H](C(=O)N[C@H](CC(C)C)C(=O)N[C@H](CC(C)C)C(=O)N[C@H](CCCCN)C(=O)N[C@H](C)C(=O)N[C@H](CC(C)C)C(=O)N[C@H](CO)C(=O)N[C@H](CCCCN)C(N)=O)[C@H](C)O)[C@H](C)O", "test": "broth microdilution", "system": "M2", "setting": "24 h, 37 °C", "MIC": "2.6 µM"}
{"Compound": "CCCCCCCCCC(=O)NCCCC[C@H](NC(=O)[C@H](CC(C)C)NC(=O)[C@H](CCCCN)NC(=O)[C@H](CCCCNC(=O)[C@H](CC(C)C)NC(=O)[C@H](CCN)NC(=O)[C@H](CCCCNC(=O)[C@H](Cc1ccccc1)NC(=O)[C@@H](N)CCCN)NC(=O)[C@H](Cc1ccccc1)NC(=O)[C@@H](N)CCCN)NC(=O)[C@H](CC(C)C)NC(=O)[C@H](CCN)NC(=O)[C@H](CCCCNC(=O)[C@H](Cc1ccccc1)NC(=O)[C@@H](N)CCCN)NC(=O)[C@H](Cc1ccccc1)NC(=O)[C@@H](N)CCCN)C(N)=O", "test": "broth microdilution", "system": "PAO1", "setting": "37 °C", "MIC": "2 µg/mL"}
{"Compound": "CCn1cc[n+](CC)[c]1[Au-][Cl]", "test": "broth dilution", "system": "PA7 DSM 24068", "setting": "20 h, 37 °C", "MIC": "85.1 ± 20.1 µM"}
{"Compound": "CC[P+](CC)(CC)[Au-][S]c1ccc(SCC(=O)N[C@H]2[C@H](OC(C)=O)O[C@H](COC(C)=O)[C@@H](OC(C)=O)[C@@H]2OC(C)=O)cc1", "system": "NCTC 13437", "MIC": "> 303 µM"}
{"note": "Repeated from above:"}
{"Compound": "CC[C@@H](C)[C@@H](NC(=O)[C@@H](C)NC(=O)[C@@H](CCCCN)NC(=O)[C@@H](CC(C)C)NC(=O)[C@@H](CC(C)C)NC(=O)[C@H](NC(=O)[C@@H](CCCCN)NC(=O)[C@@H](CC(C)C)NC(=O)[C@@H](CCCCN)NC(=O)[C@@H](CCCCN)NC(=O)[C@@H](CCCCN)NC(=O)[C@@H](CCCCN)NC(=O)[C@@H](C)NC(=O)[C@@H](CCCCN)NC(=O)[C@@H](CO)NC(=O)[C@@H](Cc1ccccc1)NC(=O)[C@H](NC(=O)[C@@H](CCCCN)NC(=O)[C@@H](CC(C)C)NC(=O)[C@@H](Cc1ccccc1)NC(=O)[C@@H](CO)NC(=O)[C@@H](CCCCN)NC(=O)[C@@H](Cc1c[nH]c2ccccc12)NC(=O)[C@@H](CCCCN)NC(C)=O)[C@H](C)O)[C@H](C)O)C(=O)N[C@H](CO)C(=O)N[C@H](CCCCN)C(N)=O", "test": "broth microdilution", "system": "PA14", "setting": "24 h, 37 °C", "MIC": "2.5 µM"}
{"Compound": "N=C(N)NCCC[C@H](NC(=O)[C@H](CCCNC(=N)N)NC(=O)[C@H](CCCNC(=N)N)NC(=O)[C@@H](N)CCCNC(=N)N)C(=O)N[C@@H](Cc1c[nH]c2ccccc12)C(=O)N[C@@H](Cc1c[nH]c2ccccc12)C(=O)N[C@@H](Cc1c[nH]c2ccccc12)C(=O)N[C@@H](Cc1c[nH]c2ccccc12)C(=O)O", "test": "broth microdilution", "system": "PAO1", "setting": "37 °C", "MIC": "21.7 µg/mL"}
